# Assay results from different studies.
# Every numbered part comes from another study and shows a few of its results, in no order. Positions count from the first letter of the parent shown.
# UniProt Q38824, sequence (whole entry, looked up): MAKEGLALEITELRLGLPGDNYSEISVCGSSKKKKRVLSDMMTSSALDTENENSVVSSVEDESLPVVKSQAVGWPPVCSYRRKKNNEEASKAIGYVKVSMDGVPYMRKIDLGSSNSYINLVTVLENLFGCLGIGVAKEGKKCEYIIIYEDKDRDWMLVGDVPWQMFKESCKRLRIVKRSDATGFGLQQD
# UniProt Q9FGV1, sequence (whole entry, looked up): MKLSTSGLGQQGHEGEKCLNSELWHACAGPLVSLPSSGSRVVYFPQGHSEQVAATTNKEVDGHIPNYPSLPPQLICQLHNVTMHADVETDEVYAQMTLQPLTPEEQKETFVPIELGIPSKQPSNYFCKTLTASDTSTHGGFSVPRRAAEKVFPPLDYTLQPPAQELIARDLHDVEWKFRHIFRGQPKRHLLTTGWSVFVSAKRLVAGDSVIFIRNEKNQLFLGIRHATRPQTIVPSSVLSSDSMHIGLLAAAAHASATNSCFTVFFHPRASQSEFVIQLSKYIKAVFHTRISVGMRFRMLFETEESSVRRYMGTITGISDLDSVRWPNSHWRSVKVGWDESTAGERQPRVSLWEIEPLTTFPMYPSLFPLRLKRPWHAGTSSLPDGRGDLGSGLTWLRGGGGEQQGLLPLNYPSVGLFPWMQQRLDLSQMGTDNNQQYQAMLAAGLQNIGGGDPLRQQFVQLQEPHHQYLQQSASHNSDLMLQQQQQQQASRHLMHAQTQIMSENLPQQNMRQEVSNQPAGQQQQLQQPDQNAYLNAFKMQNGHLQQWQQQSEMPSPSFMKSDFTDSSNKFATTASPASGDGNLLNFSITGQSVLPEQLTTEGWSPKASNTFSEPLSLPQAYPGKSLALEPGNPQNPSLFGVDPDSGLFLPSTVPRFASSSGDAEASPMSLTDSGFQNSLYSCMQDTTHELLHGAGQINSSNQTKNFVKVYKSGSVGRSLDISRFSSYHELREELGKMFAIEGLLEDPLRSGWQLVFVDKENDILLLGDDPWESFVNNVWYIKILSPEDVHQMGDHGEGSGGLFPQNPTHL
# UniProt Q84WU6, sequence (whole entry, looked up): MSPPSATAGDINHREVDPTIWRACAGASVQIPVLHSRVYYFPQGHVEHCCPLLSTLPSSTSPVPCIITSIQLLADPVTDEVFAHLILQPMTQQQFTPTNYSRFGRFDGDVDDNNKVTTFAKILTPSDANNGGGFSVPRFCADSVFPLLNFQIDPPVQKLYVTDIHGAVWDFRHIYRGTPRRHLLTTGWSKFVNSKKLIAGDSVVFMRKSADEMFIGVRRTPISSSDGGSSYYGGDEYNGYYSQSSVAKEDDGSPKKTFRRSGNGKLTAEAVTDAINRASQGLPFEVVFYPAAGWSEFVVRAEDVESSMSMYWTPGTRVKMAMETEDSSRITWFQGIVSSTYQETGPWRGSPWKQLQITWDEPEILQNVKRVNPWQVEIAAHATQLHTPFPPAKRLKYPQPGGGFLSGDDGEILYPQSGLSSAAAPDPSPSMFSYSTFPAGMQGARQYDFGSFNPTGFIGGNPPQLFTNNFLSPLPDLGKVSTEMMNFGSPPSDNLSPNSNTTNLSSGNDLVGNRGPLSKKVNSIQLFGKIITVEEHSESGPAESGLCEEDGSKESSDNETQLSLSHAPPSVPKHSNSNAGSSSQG
# UniProt Q8H174, sequence (whole entry, looked up): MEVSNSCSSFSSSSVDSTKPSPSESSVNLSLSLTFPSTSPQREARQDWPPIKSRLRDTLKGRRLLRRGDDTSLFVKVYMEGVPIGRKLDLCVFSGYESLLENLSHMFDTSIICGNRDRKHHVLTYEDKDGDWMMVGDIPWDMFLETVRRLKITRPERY
# UniProt P33078, sequence (whole entry, looked up): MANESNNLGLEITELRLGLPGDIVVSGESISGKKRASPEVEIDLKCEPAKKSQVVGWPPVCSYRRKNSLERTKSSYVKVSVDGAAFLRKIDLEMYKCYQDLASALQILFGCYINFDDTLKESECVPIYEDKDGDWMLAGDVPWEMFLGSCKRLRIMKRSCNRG

# Block 1
# Sequence: B1 (IAA1)
# Method: two-hybrid
# Reference: out of 4 tests
# Reading: higher = firmer interaction
# B1: IAA1 (Arabidopsis thaliana, UniProt P49677); chain MEVTNGLNLKDTELRLGLPGAQEEQQLELSCVRSNNKRKNNDSTEESAPPPAKTQIVGWPPVRSNRKNNNNKNVSYVKVSMDGAPYLRKIDLKMYKNYPELLKALENMFKFTVGEYSEREGYKGSGFVPTYEDKDGDWMLVGDVPWDMFSSSCQKLRIMKGSEAPTAL
partner,setting,positive tests
"ARF8 699-811 (Arabidopsis thaliana, UniProt Q9FGV1)",,3
"IAA5 (Arabidopsis thaliana, UniProt P33078)",,3
"IAA31 (Arabidopsis thaliana, UniProt Q8H174)",,2
"ARF17 (Arabidopsis thaliana, UniProt Q84WU6)",weak activation fusion,2
"IAA6 (Arabidopsis thaliana, UniProt Q38824)",,0

# Block 2
# Target: Prothrombin, mature alpha-thrombin (F2, Homo sapiens, UniProt P00734)
# Method: aptamer microarray, sandwich
# Form: DNA with 2'F-ANA
# Sample: in vitro
# Concentration: 200 nM
# Setting: whole 15-mer aptamer, many near background
# Together with: Cy3 exosite-II aptamer, 400 nM
# Reading: higher = stronger binding
# Oligonucleotide: GGTTGGTGTGGTTGG
Modification,mean fluorescence intensity [a.u.]
2'F-ANA at 5 7 10 11 12 13,46.4
2'F-ANA at 2 7 8 9 13,398
2'F-ANA at 1 5 6 7 15,64.1
2'F-ANA at 1 2 3 4 9 12 13 15,247
2'F-ANA at 1 6 7 10 13 14,50.4
2'F-ANA at 2 3 4 5 6 7 9 10 11 12 13 15,65.3
2'F-ANA at 1 2 5 6 10 11 13 14 15,58.5
2'F-ANA at 1 2 3 6 7 9 10 11 12 14 15,58.6
2'F-ANA at 1 5 6 9 13 14 15,50.8
2'F-ANA at 3 5 6 7 10 13 15,53.6
2'F-ANA at 2 3 4 5 7 9 10 11 12 13 14,55.6
2'F-ANA at 2 3 4 6 7 8 9 11 14,226
2'F-ANA at 1 2 3 5 6 7 9 11 12 13,183
2'F-ANA at 2 3 13,801
2'F-ANA at 3 8 10 11,509
2'F-ANA at 2 3 7 11 14 15,483
2'F-ANA at 1 5 6 10 14,46.2

# Block 3
# Target: Sal-like protein 4, full length isoform B (SALL4, Homo sapiens, UniProt Q9UJQ4-2, residues 1-616)
# Method: universal PBM
# Form: double-stranded DNA, one strand shown
# Sample: in vitro
# Concentration: not given
# Setting: 8-mer, flanks averaged, mean of replicates
# Reading: higher = stronger binding
# Construct (chain): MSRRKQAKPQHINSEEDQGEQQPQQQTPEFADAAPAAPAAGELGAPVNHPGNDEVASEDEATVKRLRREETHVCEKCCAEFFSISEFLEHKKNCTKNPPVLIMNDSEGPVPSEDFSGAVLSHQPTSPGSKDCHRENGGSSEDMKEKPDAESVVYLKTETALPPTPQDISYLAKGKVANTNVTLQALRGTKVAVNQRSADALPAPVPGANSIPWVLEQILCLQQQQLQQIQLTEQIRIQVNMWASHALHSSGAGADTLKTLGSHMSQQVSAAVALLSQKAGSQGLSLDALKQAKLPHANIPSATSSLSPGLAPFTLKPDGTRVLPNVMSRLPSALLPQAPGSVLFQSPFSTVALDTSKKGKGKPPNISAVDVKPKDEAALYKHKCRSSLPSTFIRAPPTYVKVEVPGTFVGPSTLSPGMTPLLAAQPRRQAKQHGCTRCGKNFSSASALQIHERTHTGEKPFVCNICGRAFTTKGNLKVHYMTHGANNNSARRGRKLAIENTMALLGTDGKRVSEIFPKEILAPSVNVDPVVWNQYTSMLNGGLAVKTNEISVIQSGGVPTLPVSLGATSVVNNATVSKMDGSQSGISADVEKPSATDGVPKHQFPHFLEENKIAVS
Oligonucleotide,E-score
GCACTAAA,0.148
CCCGCCTC,-0.35
ATAGGCAG,0.287
CCTCAATC,0.00289
AAGCTCAT,-0.115
GAGTACAC,-0.0862
AGTGCTAG,-0.0265
AACTTCGC,-0.0983
GGCAGAAA,0.0556
CGTAGGGC,-0.125
CTGTGCTC,-0.0545
GGCGGTGA,-0.221
CCATCCAG,-0.0278
ACCATGAC,-0.129
AATTGGTG,0.133
GCCGGGGA,-0.301
AAAGGTTG,-0.0914
CACAGCTG,-0.298
CGTCAGTC,-0.182
CCGTTAAC,-0.0834
GGTACCCA,-0.167
GGGTCGAA,-0.168
ACTGTGCA,-0.0216
GCGTGGAA,-0.0819
ATTGGACC,-0.118

# Block 4
# Target: ABI1, truncated, D143A, DHFR fusion (Arabidopsis thaliana)
# Method: DHFR PCA, deep sequencing
# Sample: yeast
# Setting: methotrexate growth selection, single substitutions
# Together with: (+)-ABA 0.39 µM
# Reference: wild-type fitted maximum
# Reading: higher = stronger binding
# Starting sequence: PYL1, truncated, DHFR fusion (Arabidopsis thaliana); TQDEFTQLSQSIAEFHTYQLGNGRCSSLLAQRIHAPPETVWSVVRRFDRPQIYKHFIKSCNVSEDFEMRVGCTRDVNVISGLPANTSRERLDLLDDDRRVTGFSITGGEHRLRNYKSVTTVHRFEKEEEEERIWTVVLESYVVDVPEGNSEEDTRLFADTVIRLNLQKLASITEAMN
Variant,relative binding score [%]
G71T,-15.1
V76T,-7.03
E129V,28.9
T73Q,29.9
D97G,17.9
D48Q,-11.4
E129Q,46.6
H16F,-12.8
G108W,-9.68
I79C,47.8
H34N,59.7
S63V,20.7
I79G,-0.438
F47Q,-15.3
S63C,40.9
P37T,13.3

# Block 5
# Target: Histone acetyltransferase KAT6A, both winged helices, GST fusion (KAT6A, Homo sapiens, UniProt Q92794, residues 1-181)
# Method: protein binding microarray
# Form: double-stranded DNA, one strand shown
# Sample: in vitro
# Concentration: not given
# Setting: 8-mer, flanks averaged, mean of 2 arrays, mostly near background
# Reference: not given
# Reading: higher = stronger binding
# Construct (chain): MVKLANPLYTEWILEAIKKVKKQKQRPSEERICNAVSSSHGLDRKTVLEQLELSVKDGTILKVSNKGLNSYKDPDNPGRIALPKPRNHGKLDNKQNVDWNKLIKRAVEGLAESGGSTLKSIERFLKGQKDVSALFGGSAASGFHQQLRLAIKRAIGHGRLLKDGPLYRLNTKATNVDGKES
Oligonucleotide,E-score
GTAAGAAA,-0.133
GATAAAAC,0.151
AGTATAAT,-0.163
CCAATATC,-0.0985
CCACCGAA,-0.12
CATGTTCC,0.103
ACACCTGG,-0.152
GCAGGGGA,-0.0323
ACTCACGC,0.167
CAGGTCAA,-0.253
GAGACGAA,0.0694
CCTACAAA,-0.0479
AGCGGCTA,0.295
GTATTCAC,0.123
TGGATTAA,-0.127
GCCACAGC,-0.00541
GCCTCCAA,-0.0997
CTTGTAGC,-0.0389
GTCTGGAA,-0.111
GACGAGGA,-0.176
ATGAGTGG,-0.145
GTCTTCAC,0.00314
AACAATTG,-0.0721
ATGTGCCA,-0.117
AGGTAGAG,-0.171

# Block 6
# Target: CCNB1, cyclin fold, Cln2 fusion (human)
# Method: yeast growth competition, sequencing
# Sample: yeast
# Setting: weak parent motif
# Reference: not given
# Reading: higher = stronger binding
# Starting sequence: BORA docking peptide (human); SSLRRKLFLDGNG
Variant,normalised enrichment score
SALRRKLFLDGNG [S2A],0.843
SSARRKLFLDGNG [L3A],-0.0676
SSLRKKLFFDGNG [R5K L9F],0.623
SSLRRKLFLAGNG [D10A],0.327
SSLARKLFLDGNG [R4A],0.126
SSLRRKAFLDGNG [L7A],0.123
SSLRRKLLLDGNG [F8L],0.5
SSLRAKLFLDGNG [R5A],0.153
SSLRRALFLDGNG [K6A],0.508

# Block 7
# Target: RNA binding protein fox-1 homolog 2, RRM domain, GST-SBP tag (RBFOX2, Homo sapiens, UniProt O43251-10, residues 100-194)
# Method: RNA Bind-n-Seq
# Form: RNA
# Sample: in vitro
# Concentration: 365 nM
# Setting: natural RNA segment, single round, ends assumed
# Reference: no-protein control
# Reading: higher = stronger binding
# Construct (chain): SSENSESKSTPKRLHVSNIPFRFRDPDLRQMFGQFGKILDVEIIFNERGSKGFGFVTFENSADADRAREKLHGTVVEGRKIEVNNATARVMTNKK
Oligonucleotide,RBNS enrichment (R)
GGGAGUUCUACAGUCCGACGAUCAGUAUUUAACUUGAAAUUCAUCAUGGGAGUCUGCUGCUAUACCAGGCACAAGAUAAAACUCCAAAAUUUCUGUUUACAUUGACCUUUACAUUUAAAGCUGUUCAUCCAUGUGGAAUUCUCGGGUGCCAA,0.33
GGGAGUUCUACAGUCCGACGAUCCGGUCCAUCCCUAUUUACAAAGCUAUGGGCCACUGUCAGCACAUUAAACAAGGUGAGGGAGAGUAGCUGCCUCCGUGUCACCUUGUCUGCCUGGGUCUCUGAGGAAGGAGUGGAAUUCUCGGGUGCCAA,0.376
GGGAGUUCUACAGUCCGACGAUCCCAGCUGGGCUGUUAGCCGGGCCACCCCCUCUGAAGGUGAAACUGAGCAGAUGAGGCCACAGAAGCACAAGGGGAAGGUGCCGUGUCAAGCCCAGGCAGACGAGACCUCUUGGAAUUCUCGGGUGCCAA,0.386
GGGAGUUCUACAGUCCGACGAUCUGAAGGAGUUAAUUAAAAGAGAGCCAAUAAAAUGAUUUUACUCAUUCAGUAUCUGAGUACUGGAAGUGAAACAUGAGGAAUGCUUUAGUGUAAUGUGGGAGAACUUUUUUUGGAAUUCUCGGGUGCCAA,0.896
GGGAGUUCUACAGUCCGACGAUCUCCUGAGAGUGUGAGGUCAUCAGAACCCACCUGCCACUGAGGCCAGUGAAGGUCUCAGACCAAGGGGUACAAGAACUCCAGCACACCCAGAGAUGGUCAUGCACAGCCUCUGGAAUUCUCGGGUGCCAA,0.261
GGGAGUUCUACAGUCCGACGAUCCUCCGAGUGGGUGCUCAAGUCCCCCCCGCGACCCACCCGCGGAGUGGGGGGCCCCCUCCGCCACAAGGAAGCACAACCAGCUCGCCCUCCCCCUACCCGGGGCCGCAGGAUGGAAUUCUCGGGUGCCAA,0.417
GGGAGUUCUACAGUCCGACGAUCAUCUGAGUAACUGCUCUUGGUGGCUUCCACUGCCCUGAGGCUUUGAGGGAAGCACCUAACCUCUGCUGCUUUGCAAGGAAGGCUCCUUGCAAUCUGGAGAGAGACUCGGUUGGAAUUCUCGGGUGCCAA,0.339
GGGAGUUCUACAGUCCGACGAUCGAUCGUUCAUUAUAAAGGCAGCGUUCAUAGAAUUGCUUUUCUUUCUUUUUACCCCCCCUUUGGGAACUGGAUUUAAGUUUAAAACUUUCCUGUUUCCUUUUUUUUUUUUUUGGAAUUCUCGGGUGCCAA,0.435
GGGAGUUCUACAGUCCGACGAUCGACCUAACAUUGGGGACUUAAAUGCCUUCUUAUCCAAUAUAUCUUCUCAGAUGGGAUGACUGCGGGUCAGUGCACCGAAGAGGCGGGCGCAGGCGCUGUCUGGCUCAGCUUGGAAUUCUCGGGUGCCAA,0.332
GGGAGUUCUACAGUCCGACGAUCGUUACAUUGGAAUGCUUACUGUCCUACAGAGUGGCAGCAAAUAAAACCUUGCAUUCCAUCAAGCCAAAAUAGCACACUCUGUUAGAGGAGAUACAUGUUUAAGAUAGAAUUGGAAUUCUCGGGUGCCAA,0.586
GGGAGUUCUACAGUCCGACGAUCAGCUUCCUCCGCAUCCUCCCAUCUUGCCCCAUUUCUGCCACGUCAGACACUUCCUGAGAGUCUCACCUUCAAAAUGACACCGCUGCCCAUCCAUUGCUCAAUGGUACAGAUGGAAUUCUCGGGUGCCAA,0.93
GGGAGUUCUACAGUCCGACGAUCGGCUCCUGCCUGACUCUUCCUUCGUCGGAGAAAGGAAAAAACAGUGUUAAGUGACCUAGAAACUUGAACCCUCCUUUGGAGACAACCAUUCUGCUGAAAAUUUAAAACAGUGGAAUUCUCGGGUGCCAA,0.566
